Measured values of several laboratories.
Parts stem from different laboratories: compare values within a part only.
Sequence of UniProt P42336 (whole entry, unmodified, looked up): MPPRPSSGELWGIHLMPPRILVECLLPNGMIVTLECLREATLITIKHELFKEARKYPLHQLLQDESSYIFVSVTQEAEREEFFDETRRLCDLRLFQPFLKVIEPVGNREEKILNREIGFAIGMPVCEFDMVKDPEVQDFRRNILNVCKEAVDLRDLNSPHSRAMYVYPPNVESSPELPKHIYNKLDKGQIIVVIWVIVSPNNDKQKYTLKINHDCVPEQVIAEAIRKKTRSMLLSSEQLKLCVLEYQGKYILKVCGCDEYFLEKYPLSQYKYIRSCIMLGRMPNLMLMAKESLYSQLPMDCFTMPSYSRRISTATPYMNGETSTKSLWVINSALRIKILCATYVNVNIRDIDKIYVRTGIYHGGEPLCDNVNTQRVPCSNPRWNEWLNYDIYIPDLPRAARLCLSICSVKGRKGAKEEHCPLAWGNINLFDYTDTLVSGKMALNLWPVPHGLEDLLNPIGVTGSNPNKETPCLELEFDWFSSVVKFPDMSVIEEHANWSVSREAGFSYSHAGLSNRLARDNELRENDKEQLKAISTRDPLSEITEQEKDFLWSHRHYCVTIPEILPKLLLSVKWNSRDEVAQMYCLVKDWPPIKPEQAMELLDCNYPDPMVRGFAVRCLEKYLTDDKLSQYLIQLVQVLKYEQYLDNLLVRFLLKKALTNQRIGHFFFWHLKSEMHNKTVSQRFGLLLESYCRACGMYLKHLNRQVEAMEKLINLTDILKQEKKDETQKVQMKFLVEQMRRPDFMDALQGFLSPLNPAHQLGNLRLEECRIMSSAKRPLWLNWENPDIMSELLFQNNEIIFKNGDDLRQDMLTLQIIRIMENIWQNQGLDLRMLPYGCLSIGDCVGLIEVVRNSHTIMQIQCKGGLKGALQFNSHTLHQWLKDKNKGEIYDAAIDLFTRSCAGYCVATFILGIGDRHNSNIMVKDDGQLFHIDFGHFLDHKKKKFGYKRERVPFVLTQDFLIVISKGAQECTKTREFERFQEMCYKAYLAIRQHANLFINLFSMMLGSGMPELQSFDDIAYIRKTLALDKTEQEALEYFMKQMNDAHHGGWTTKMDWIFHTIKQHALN
Sequence of UniProt Q9Y2H1 (whole entry, looked up): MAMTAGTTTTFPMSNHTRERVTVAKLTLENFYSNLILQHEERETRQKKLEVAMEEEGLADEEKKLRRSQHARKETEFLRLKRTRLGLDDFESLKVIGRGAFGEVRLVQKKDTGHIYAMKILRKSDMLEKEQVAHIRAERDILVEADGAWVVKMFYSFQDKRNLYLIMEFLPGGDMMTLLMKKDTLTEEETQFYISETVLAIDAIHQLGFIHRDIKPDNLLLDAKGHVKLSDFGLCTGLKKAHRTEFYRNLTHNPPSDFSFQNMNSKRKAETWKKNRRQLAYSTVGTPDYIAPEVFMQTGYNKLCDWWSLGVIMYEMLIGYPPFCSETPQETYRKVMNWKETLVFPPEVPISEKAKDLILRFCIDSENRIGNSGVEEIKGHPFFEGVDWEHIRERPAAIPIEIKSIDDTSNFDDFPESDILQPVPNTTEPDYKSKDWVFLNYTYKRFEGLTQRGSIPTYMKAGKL
Sequence of UniProt Q9NWZ3 (whole entry, looked up): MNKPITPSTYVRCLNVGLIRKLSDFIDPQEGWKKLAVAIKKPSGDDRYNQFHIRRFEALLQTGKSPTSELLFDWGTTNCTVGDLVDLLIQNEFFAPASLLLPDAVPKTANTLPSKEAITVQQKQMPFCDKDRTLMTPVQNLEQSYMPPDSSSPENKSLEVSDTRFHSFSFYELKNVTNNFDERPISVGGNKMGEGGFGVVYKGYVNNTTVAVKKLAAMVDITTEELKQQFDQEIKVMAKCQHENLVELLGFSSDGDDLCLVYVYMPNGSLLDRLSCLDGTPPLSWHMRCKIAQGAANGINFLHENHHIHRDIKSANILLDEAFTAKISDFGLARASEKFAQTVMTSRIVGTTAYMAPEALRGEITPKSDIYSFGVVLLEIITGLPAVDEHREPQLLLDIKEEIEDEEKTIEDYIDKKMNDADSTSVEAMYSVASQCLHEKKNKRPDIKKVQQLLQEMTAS
Sequence of UniProt P35916 (whole entry, looked up): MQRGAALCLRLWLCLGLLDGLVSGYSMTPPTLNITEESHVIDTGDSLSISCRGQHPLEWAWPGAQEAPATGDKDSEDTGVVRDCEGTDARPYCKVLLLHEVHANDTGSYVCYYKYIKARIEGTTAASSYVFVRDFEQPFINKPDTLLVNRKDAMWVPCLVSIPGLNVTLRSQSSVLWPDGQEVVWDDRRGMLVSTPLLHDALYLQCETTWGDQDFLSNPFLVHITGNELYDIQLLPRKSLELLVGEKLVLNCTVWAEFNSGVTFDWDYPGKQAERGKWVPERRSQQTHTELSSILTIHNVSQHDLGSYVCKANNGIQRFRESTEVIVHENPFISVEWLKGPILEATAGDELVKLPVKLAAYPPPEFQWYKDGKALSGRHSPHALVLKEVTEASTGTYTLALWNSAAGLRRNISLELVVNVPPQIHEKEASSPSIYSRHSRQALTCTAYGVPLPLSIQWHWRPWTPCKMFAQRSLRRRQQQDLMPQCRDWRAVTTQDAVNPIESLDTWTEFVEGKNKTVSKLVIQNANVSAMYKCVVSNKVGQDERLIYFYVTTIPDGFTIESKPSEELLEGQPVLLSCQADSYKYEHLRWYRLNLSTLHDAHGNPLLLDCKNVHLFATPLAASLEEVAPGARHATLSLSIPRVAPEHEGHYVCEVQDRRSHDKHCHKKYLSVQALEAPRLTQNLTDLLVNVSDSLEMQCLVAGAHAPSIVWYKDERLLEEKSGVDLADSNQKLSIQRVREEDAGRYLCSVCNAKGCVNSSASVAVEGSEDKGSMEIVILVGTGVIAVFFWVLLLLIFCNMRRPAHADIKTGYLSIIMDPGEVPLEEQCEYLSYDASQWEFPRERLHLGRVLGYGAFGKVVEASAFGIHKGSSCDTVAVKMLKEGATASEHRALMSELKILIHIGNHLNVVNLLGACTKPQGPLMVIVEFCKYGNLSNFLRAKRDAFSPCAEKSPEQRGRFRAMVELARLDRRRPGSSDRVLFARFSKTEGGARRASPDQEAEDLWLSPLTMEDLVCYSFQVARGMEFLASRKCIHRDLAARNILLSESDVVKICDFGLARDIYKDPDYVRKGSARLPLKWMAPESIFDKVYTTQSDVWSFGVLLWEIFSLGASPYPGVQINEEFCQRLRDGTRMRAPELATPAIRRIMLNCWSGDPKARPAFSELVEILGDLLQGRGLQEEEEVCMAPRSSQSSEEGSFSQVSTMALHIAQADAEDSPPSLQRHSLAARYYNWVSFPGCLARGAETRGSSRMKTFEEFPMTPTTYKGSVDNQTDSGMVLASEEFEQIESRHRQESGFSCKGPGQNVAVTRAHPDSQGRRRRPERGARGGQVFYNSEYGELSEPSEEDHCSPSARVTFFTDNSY
Sequence of UniProt Q12866 (whole entry, looked up): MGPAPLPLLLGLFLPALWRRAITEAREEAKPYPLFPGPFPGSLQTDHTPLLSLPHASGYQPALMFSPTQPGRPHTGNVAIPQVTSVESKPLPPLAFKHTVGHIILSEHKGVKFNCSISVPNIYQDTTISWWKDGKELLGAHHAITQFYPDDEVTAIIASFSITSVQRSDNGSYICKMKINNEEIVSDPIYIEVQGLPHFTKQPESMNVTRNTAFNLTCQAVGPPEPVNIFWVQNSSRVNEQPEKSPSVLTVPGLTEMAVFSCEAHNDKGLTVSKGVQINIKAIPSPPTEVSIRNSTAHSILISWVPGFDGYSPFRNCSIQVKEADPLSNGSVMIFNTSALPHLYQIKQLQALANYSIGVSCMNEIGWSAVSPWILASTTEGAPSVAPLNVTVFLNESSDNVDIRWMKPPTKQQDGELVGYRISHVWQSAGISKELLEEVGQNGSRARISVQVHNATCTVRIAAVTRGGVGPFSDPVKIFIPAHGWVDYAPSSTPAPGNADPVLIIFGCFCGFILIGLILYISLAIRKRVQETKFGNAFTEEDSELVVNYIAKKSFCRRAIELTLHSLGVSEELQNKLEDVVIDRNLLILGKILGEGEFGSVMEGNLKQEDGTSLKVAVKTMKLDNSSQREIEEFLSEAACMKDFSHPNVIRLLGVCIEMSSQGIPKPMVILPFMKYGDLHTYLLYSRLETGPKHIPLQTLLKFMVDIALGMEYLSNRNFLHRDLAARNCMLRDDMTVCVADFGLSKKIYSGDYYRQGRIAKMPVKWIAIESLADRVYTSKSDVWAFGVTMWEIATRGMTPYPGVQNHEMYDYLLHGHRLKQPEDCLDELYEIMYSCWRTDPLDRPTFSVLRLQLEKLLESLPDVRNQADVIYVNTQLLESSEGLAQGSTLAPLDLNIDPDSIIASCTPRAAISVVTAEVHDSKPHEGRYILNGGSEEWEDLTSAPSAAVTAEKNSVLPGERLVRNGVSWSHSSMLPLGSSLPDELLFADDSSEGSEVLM

Study 1 — technique: competition with immobilised ligand; concentration: 1 µM; measurement: remaining binding
Compound: Cc1c(NC(=O)c2cc(C(N)=O)nc3cc(F)ccc23)c(C(F)(F)F)nn1Cc1ccc(C#N)cc1
CDC42BPA (Homo sapiens, UniProt Q5VT25); cell-free assay: 97%
CSNK1G1 (Homo sapiens, UniProt Q9HCP0); cell-free assay: 100%
MAP3K5 (Homo sapiens, UniProt Q99683); cell-free assay: 91%
ALK (Homo sapiens, UniProt Q9UM73); cell-free assay: 87%
RIPK2 (Homo sapiens, UniProt O43353); cell-free assay: 100%
PIK3CA (Homo sapiens, UniProt P42336, E545K); cell-free assay: 73%
PIP5K1A (Homo sapiens, UniProt Q99755); cell-free assay: 100%
FLT4 (Homo sapiens, UniProt P35916); cell-free assay: 100%
MAK (Homo sapiens, UniProt P20794); binding: 79%
CSNK2A1 (Homo sapiens, UniProt P68400); cell-free assay: 78%
MERTK (Homo sapiens, UniProt Q12866); cell-free assay: 100%
PIK3CA (Homo sapiens, UniProt P42336, H1047L); cell-free assay: 88%
PTK2B (Homo sapiens, UniProt Q14289); cell-free assay: 95%
STK24 (Homo sapiens, UniProt Q9Y6E0); cell-free assay: 78%
PRKACB (Homo sapiens, UniProt P22694); cell-free assay: 93%
MAPK6 (Homo sapiens, UniProt Q16659); cell-free assay: 88%
Tyrosine-protein kinase JAK1, JH2 (JAK1, Homo sapiens, UniProt P23458); cell-free assay: 86%
STK38L (Homo sapiens, UniProt Q9Y2H1); binding: 100%

Study 2 — observed: enzyme activity; mode: inhibitor; concentration: 10 µM; measurement: inhibition
Target: Calcium/calmodulin-dependent protein kinase type II subunit alpha (CAMK2A, Homo sapiens, UniProt Q9UQM7)
Sequence of UniProt Q9UQM7 (whole entry, looked up): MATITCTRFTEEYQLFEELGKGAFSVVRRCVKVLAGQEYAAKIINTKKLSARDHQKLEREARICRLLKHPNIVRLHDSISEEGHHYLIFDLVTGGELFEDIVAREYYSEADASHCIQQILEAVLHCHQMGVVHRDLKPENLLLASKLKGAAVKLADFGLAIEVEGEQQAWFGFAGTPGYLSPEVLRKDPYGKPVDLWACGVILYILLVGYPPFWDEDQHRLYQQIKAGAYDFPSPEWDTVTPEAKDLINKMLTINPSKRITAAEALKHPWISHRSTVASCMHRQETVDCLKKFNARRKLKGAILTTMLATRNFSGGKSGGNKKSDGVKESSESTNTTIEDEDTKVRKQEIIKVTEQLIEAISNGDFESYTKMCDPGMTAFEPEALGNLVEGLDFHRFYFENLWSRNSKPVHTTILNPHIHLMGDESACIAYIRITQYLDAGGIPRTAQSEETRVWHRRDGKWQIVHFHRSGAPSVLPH
CC(C)C[C@@H](NC(=O)[C@@H](Cc1ccccc1)NC(=O)[C@H](N)Cc1ccccc1)C(=O)N[C@H](CCCCN)C(=O)N1CCC(N)(C(=O)O)CC1: -12%
CC1(C)C[C@H]2C3=CC[C@@H]4[C@@]5(C)CC[C@H](O)[C@@](C)(CO)[C@@H]5CC[C@@]4(C)[C@]3(C)C[C@H](O)[C@@]2(CO)[C@@H](O)[C@@H]1O: -33%
CC(=O)NCCCCNCCCN: -94%
CO[C@]1(C(=O)N[C@@H](C)c2ccc(-n3cc(F)cn3)nc2)CC[C@H](c2nc(C)cc(Nc3cc(C)[nH]n3)n2)CC1: -3%
Cc1cc(O)c2c(c1)C(=O)c1cc(O)cc(O[C@@H]3O[C@H](CO)[C@@H](O)[C@H](O)[C@H]3O)c1C2=O: -13%

Study 3 — observed: enzyme activity; mode: inhibitor; concentration: 1 µM; measurement: inhibition
SMILES: CO[C@@H]1[C@H](N(C)C(=O)c2ccccc2)C[C@H]2O[C@]1(C)n1c3ccccc3c3c4c(c5c6ccccc6n2c5c31)C(=O)NC4
PIK3CA (Homo sapiens, UniProt P42336, H1047Y): 31%
CDK13 (Homo sapiens, UniProt Q14004): 16%
RIOK1 (Homo sapiens, UniProt Q9BRS2): 99%
IRAK4 (Homo sapiens, UniProt Q9NWZ3): 16%
ACVR2B (Homo sapiens, UniProt Q13705): 0%
MAP3K12 (Homo sapiens, UniProt Q12852): 28%

Study 4 — concentration: 1 µM; measurement: remaining activity
SMILES: CN1CCN(C(=O)c2ccc(NC(=O)Nc3ccc(N(C)c4ccnc(Nc5ccc(CS(C)(=O)=O)cc5)n4)cc3)cc2)CC1
KIT (Homo sapiens, UniProt P10721): 0%
DCLK3 (Homo sapiens, UniProt Q9C098): 100%
TEK (Homo sapiens, UniProt Q02763): 41%
MAP3K19 (Homo sapiens, UniProt Q56UN5): 0%
CIT (Homo sapiens, UniProt O14578): 79%
PDGFRA (Homo sapiens, UniProt P16234): 2%
STK11 (Homo sapiens, UniProt Q15831): 76%

Some of these lines once more (study 4):
TEK (Homo sapiens, UniProt Q02763): 41%
MAP3K19 (Homo sapiens, UniProt Q56UN5): 0%
CIT (Homo sapiens, UniProt O14578): 79%
PDGFRA (Homo sapiens, UniProt P16234): 2%
